# Results of several laboratories.
# Each line is one published result; not all experiments were run side by side. ± marks the error that the study gave.
SMILES,test,test system,conditions,Tmax [h]
CN(CCOc1ccc(CC2SC(=O)NC2=O)cc1)c1ccccn1 (stereo not drawn),,"Sprague-Dawley rat, female, plasma","intraperitoneal, 5 mg/kg of dasatinib, together with: dasatinib co-dosed",0.8 ± 0.69
CCN1CCN(c2ccc(Nc3cc(N(C)C(=O)Nc4c(Cl)c(OC)cc(OC)c4Cl)ncn3)cc2)CC1,,"Crl:WI(Han) rat, juvenile female, plasma","oral gavage, 0.1 mg/kg/day, postnatal day 17",1
CC(=O)CC(c1ccccc1)c1c(O)c2ccccc2oc1=O (stereo not drawn),,"Sprague-Dawley rat, plasma","oral, 2 mg/kg",~3
O=C(O)C[C@H](O)C[C@H](O)/C=C/c1c(C2CC2)nc2ccccc2c1-c1ccc(F)cc1,,"male Sprague-Dawley rat (wild type), plasma","oral, 5 mg/kg",1.58 ± 0.86
CC(C)=CCC[C@](C)(O[C@@H]1O[C@H](CO)[C@@H](O)[C@H](O)[C@H]1O)[C@H]1CC[C@]2(C)[C@@H]1[C@H](O)C[C@@H]1[C@@]3(C)CC[C@H](O[C@@H]4O[C@H](CO)[C@@H](O)[C@H](O)[C@H]4O)C(C)(C)[C@@H]3CC[C@]12C,,"Sprague-Dawley rat, plasma","oral, 100 mg/kg of parent ginsenoside, control group, no prebiotic",8 ± 2
CC(C)=CCC[C@](C)(O[C@@H]1O[C@H](CO)[C@@H](O)[C@H](O)[C@H]1O)[C@H]1CC[C@]2(C)[C@@H]1[C@H](O)C[C@@H]1[C@@]3(C)CC[C@H](O)C(C)(C)[C@@H]3[C@@H](O[C@@H]3O[C@H](CO)[C@@H](O)[C@H](O)[C@H]3O)C[C@]12C,,"Sprague Dawley rat, male, plasma","oral, 25 mg/kg, white ginseng extract",0.08 ± 0.03
CC(C)(C)NC(=O)[C@@H]1C[C@@H]2CCCC[C@@H]2CN1C[C@@H](O)[C@H](Cc1ccccc1)NC(=O)[C@H](CC(N)=O)NC(=O)c1ccc2ccccc2n1,,"rat, plasma","oral, 30 mg/kg",~4
O=C(O)Cc1ccccc1Nc1c(Cl)cccc1Cl,,"rat, plasma","oral, 10 mg/kg, together with: sesamin 100 mg/kg",0.0683 ± 0.0317
Cc1cc(-c2cc(OC(=O)c3ccccc3)ccc2Cl)cc2nnc(Nc3ccc(OCCN4CCCC4)cc3)nc12,,"Long Evans rat, sclera/choroid","topical, 1%",1
CC(C)=CCC[C@](C)(O[C@@H]1O[C@H](CO)[C@@H](O)[C@H](O)[C@H]1O)[C@H]1CC[C@]2(C)[C@@H]1[C@H](O)C[C@@H]1[C@@]3(C)CC[C@H](O[C@@H]4O[C@H](CO)[C@@H](O)[C@H](O)[C@H]4O[C@@H]4O[C@H](CO)[C@@H](O)[C@H](O)[C@H]4O)C(C)(C)[C@@H]3CC[C@]12C,,"Sprague Dawley rat, male, plasma","oral, 42 mg/kg, frozen ginseng extract",0.8 ± 0.13
CCc1cc2c(cc1N1CCC(N3CCOCC3)CC1)C(C)(C)c1[nH]c3cc(C#N)ccc3c1C2=O,,"moderate hepatic impairment patients, plasma, total","oral, 300 mg single dose, fed, median",6
O=C(/C=C/c1ccc(O)c(O)c1/C=C/c1ccc(O)c(O)c1)O[C@H](Cc1ccc(O)c(O)c1)C(=O)O,UPLC-MS/MS,"Wistar rat, microcirculation dysfunction model, plasma","oral, 100 mg/kg Salvia miltiorrhiza stem-leaf extract FT",0.83 ± 0.67
O=C(O)C[C@H](O)C[C@H](O)/C=C/c1c(C2CC2)nc2ccccc2c1-c1ccc(F)cc1,,"male Sprague Dawley rat, control, plasma","oral, 2.5 mg/kg, median, together with: silymarin 500 mg/kg oral",1
O=C(/C=C/c1ccc(O)c2c1[C@H](C(=O)O)[C@@H](c1ccc(O)c(O)c1)O2)O[C@H](Cc1ccc(O)c(O)c1)C(=O)O,UPLC-MS/MS,"Wistar rat, microcirculation dysfunction model, plasma","oral, 100 mg/kg Salvia miltiorrhiza stem-leaf extract FT",1 ± 0.82
CCc1oc2cc(OC)ccc2c1C(=O)c1cc(Br)c(O)c(Br)c1,,"male Sprague-Dawley rat, whole blood","oral, 16.3 mg/kg",~3
Cc1nc2cccc(OCC(C)(C)C(=O)NC(C)C)c2c(N)c1C(=O)O,,"Sprague-Dawley rat both sexes, plasma","dietary, 100 mg/kg/day, day 7",1.5
CC(C)=CCC[C@](C)(O[C@@H]1O[C@H](CO)[C@@H](O)[C@H](O)[C@H]1O)[C@H]1CC[C@]2(C)[C@@H]1[C@H](O)C[C@@H]1[C@@]3(C)CC[C@H](O)C(C)(C)[C@@H]3[C@@H](O[C@@H]3O[C@H](CO)[C@@H](O)[C@H](O)[C@H]3O[C@@H]3O[C@@H](C)[C@H](O)[C@@H](O)[C@H]3O)C[C@]12C,,"Sprague Dawley rat, male, plasma","oral, 45 mg/kg, red ginseng extract",12 ± 2.1
Cn1nnc2c(C(N)=O)ncn2c1=O,,"male athymic rat, intracranial U87 glioma, tumour extracellular fluid","oral, 50 mg/kg, recovery-corrected microdialysis, median, together with: before cediranib",1.5
O=C(O)/C=C/c1ccc(O)c(O)c1,UPLC-MS/MS,"Wistar rat, microcirculation dysfunction model, plasma","oral, 100 mg/kg Salvia miltiorrhiza stem-leaf extract FS",0.74 ± 0.42
COc1cccc(-c2n[nH]c(SCc3ccccn3)n2)c1OC,,"Sprague-Dawley rat, both sexes, plasma","oral, diet, 100 mg/kg/day, day 90",3
CCN(CC)Cc1cc(Nc2ccnc3cc(Cl)ccc23)ccc1O,,"rat, Wistar, male, plasma","oral, 60 mg/kg, together with: myricetin 5 mg/kg iv",3.9 ± 1.29
CS(=O)(=O)c1ccc(-c2cnc(N)c(-c3ccc(C(F)(F)F)nc3)c2)cc1,,"Sprague-Dawley rat, pregnant female, plasma","oral, 30 mg/kg/day, gestation day 6",8
CCCC[C@H](NC(C)=O)C(=O)N[C@H]1CCC(=O)NC[C@@H](C(=O)N[C@@H](Cc2c[nH]c3ccccc23)C(N)=O)NC(=O)[C@H](CCCNC(=N)N)NC(=O)[C@@H](Cc2ccccc2)NC(=O)[C@H](Cc2c[nH]cn2)NC1=O,,"CD Sprague Dawley rat, female, plasma","subcutaneous, 25.0 mg/kg daily, day 1",0.25
O=C(/C=C/c1ccc(O)c(O)c1)O[C@H](Cc1ccc(O)c(O)c1)C(=O)O,UPLC-MS/MS,"Wistar rat, microcirculation dysfunction model, plasma","oral, 100 mg/kg Salvia miltiorrhiza stem-leaf extract FS",1
CC(C)=CCC[C@](C)(O[C@@H]1O[C@H](CO[C@@H]2O[C@H](CO)[C@@H](O)[C@H](O)[C@H]2O)[C@@H](O)[C@H](O)[C@H]1O)[C@H]1CC[C@]2(C)[C@@H]1[C@H](O)C[C@@H]1[C@@]3(C)CC[C@H](O[C@@H]4O[C@H](CO)[C@@H](O)[C@H](O)[C@H]4O[C@@H]4O[C@H](CO)[C@@H](O)[C@H](O)[C@H]4O)C(C)(C)[C@@H]3CC[C@]12C,,"Sprague Dawley rat, male, plasma","oral, 86 mg/kg, mixture of pure ginsenosides",8 ± 2.2
CC(C)=CCC[C@](C)(O[C@@H]1O[C@H](CO)[C@@H](O)[C@H](O)[C@H]1O)[C@H]1CC[C@]2(C)[C@@H]1[C@H](O)C[C@@H]1[C@@]3(C)CC[C@H](O[C@@H]4O[C@H](CO)[C@@H](O)[C@H](O)[C@H]4O[C@@H]4O[C@H](CO)[C@@H](O)[C@H](O)[C@H]4O)C(C)(C)[C@@H]3CC[C@]12C,,"Sprague-Dawley rat, plasma","oral, 2000 mg/kg ginseng extract, control diet 2 weeks before dosing",11.2 ± 5.2
C=CC(=O)Nc1cc(Nc2nccc(-c3cn(C)c4ccccc34)n2)c(OC)cc1N(C)CCN(C)C,,"Sprague-Dawley rat, male, plasma","oral, 10 mg/kg, together with: avitinib 30 mg/kg daily for 7 days",8

# Some of these lines once more:
SMILES,test,test system,conditions,Tmax [h]
CCc1oc2cc(OC)ccc2c1C(=O)c1cc(Br)c(O)c(Br)c1,,"male Sprague-Dawley rat, whole blood","oral, 16.3 mg/kg",~3
Cc1nc2cccc(OCC(C)(C)C(=O)NC(C)C)c2c(N)c1C(=O)O,,"Sprague-Dawley rat both sexes, plasma","dietary, 100 mg/kg/day, day 7",1.5
CC(C)=CCC[C@](C)(O[C@@H]1O[C@H](CO)[C@@H](O)[C@H](O)[C@H]1O)[C@H]1CC[C@]2(C)[C@@H]1[C@H](O)C[C@@H]1[C@@]3(C)CC[C@H](O)C(C)(C)[C@@H]3[C@@H](O[C@@H]3O[C@H](CO)[C@@H](O)[C@H](O)[C@H]3O[C@@H]3O[C@@H](C)[C@H](O)[C@@H](O)[C@H]3O)C[C@]12C,,"Sprague Dawley rat, male, plasma","oral, 45 mg/kg, red ginseng extract",12 ± 2.1
Cn1nnc2c(C(N)=O)ncn2c1=O,,"male athymic rat, intracranial U87 glioma, tumour extracellular fluid","oral, 50 mg/kg, recovery-corrected microdialysis, median, together with: before cediranib",1.5
